Measurements pooled from the literature.
Protocols differ between the studies behind these lines. “And” joins repeats or separate records; there may be more than shown. ± gives the spread as reported.

C#CCOc1ccc(/C=C2\SC(=O)N(CC(=O)NCc3ccccc3)C2=O)cc1  Kirkwood-Buff integral G1,3 (inverse Kirkwood-Buff integrals; binary solvent mixture; 298.15 K, mole fraction x1 0.90): -258 cm³/mol
COC(=O)C1C(c2nc3cc(OC)ccc3[nH]2)=Cc2cc3c(cc2C1c1cc(OC)c(OC)c(OC)c1)OCO3 (stereo not shown)  CC50 (Alamar Blue; splenocytes, mouse, uninfected ex vivo splenic explants; 48 h): > 100 µM
CCCC[C@H](NC(=O)CNC(=O)CNC(=O)CN1CCN(CC(=O)O)CCN(CC(=O)O)CCN(CC(=O)O)CC1)C(=O)N[C@H]1CC(=O)NCCCC[C@@H](C(N)=O)NC(=O)[C@H](Cc2c[nH]c3ccccc23)NC(=O)[C@H](CCCNC(=N)N)NC(=O)[C@@H](Cc2ccccc2)NC(=O)[C@H](Cc2c[nH]cn2)NC1=O [gallium-67 labelled]  tumour to skin uptake ratio (C57 mice, B16/F1 melanoma; 4 h): 31.1
CC(C)(Sc1ccncc1-c1ccc(C#N)c2ccccc12)C(=O)OC1OC(C(=O)O)C(O)C(O)C1O (stereo not shown)  renal clearance ratio (0-72 h) (adult men, urine; oral, 15 mg verinurad, mild renal impairment; baseline: impaired over normal renal function): 81%
CC(C)C[C@@H](NC(=O)[C@H](NC(=O)[C@H]1CCCN1)[C@H](C)O)C(=O)N[C@H](Cc1c[nH]cn1)C(=O)N[C@@H](C(=O)N[C@H](Cc1c[nH]cn1)C(=O)N[C@H](CC(N)=O)C(=O)N[C@H](CCCNC(=N)N)C(=O)N[C@H](CCCNC(=N)N)C(=O)N[C@H](CCCNC(=N)N)C(=O)N[C@H](CCCNC(=N)N)C(=O)N[C@H](CCCNC(=N)N)C(N)=O)[C@H](C)O  Tmax (Beagle dogs both sexes, plasma; intravenous, 3 mg/kg): 3 min
CCCC[C@H](NC(=O)CNC(=O)CNC(=O)CN1CCN(CC(=O)O)CCN(CC(=O)O)CCN(CC(=O)O)CC1)C(=O)N[C@H]1CC(=O)NCCCC[C@@H](C(N)=O)NC(=O)[C@H](Cc2c[nH]c3ccccc23)NC(=O)[C@H](CCCNC(=N)N)NC(=O)[C@@H](Cc2ccccc2)NC(=O)[C@H](Cc2c[nH]cn2)NC1=O [lead-203 labelled]  tissue uptake (C57 mouse, lung; intravenous, 0.056 MBq, 2 h): 0.42 ± 0.16 %ID/g
Oc1c(Br)cc(Br)c2nc3cc(Br)ccc3nc12  hemolysis (human red blood cells; 200 µM, 1 h, pH 7.2, 37 °C): 1.6%
CC(C)(O)c1ncc([S@](N)(=O)=NC(=O)Nc2c3c(cc4c2CCC4)CCC3)s1  Tmax (healthy human, fasted; oral, 300 mg single dose, capsule formulation): 90 min
CC(C)CCCC(C)CCCC(C)CCO[C@@H]1O[C@H](CO)[C@@H](O[C@H]2O[C@H](CO)[C@@H](O)[C@H](O)[C@H]2O)[C@H](O)[C@H]1O (stereo partly shown)  characteristic time t* (dynamic surface tension; 0.0018 mmol/L): 753 s
O=c1nc(NO)ccn1[C@@H]1O[C@H](CO)[C@@H](O)[C@H]1O  mRNA level (RT-PCR, refers to: CYP2B2; normal rat, liver; oral, 80 mg/kg twice daily, 5 days; baseline: untreated rats): 0.1 fold
Oc1ccc2ccccc2c1/N=N/c1ccccc1  elimination rate constant (Sprague-Dawley rats both sexes, whole blood; oral, 50 mg/kg): 0.00023 s⁻¹
Cn1c(=O)oc2ccc(-c3ccc(CC(C#N)NC(=O)C4CNCCCO4)c(F)c3)cc21 (stereo not shown)  NOAEL (dog): 30 mg/kg
NS(=O)(=O)c1ccc(-n2nc(C(F)(F)F)c(O)c2-c2ccc(F)cc2F)cc1  metabolite formation rate (substrate; male Wistar rat liver microsomes; 20 µM, pH 7.4, mean of 0-90 and 0-60 min): 3.2 pmol/min/mg
CCCC[C@H](NC(C)=O)C(=O)N[C@H]1CC(=O)NCCCC[C@@H](C(=O)N[C@@H](C(=O)N2CCC[C@@H]2C(N)=O)C(C)C)NC(=O)[C@H](Cc2c[nH]c3ccccc23)NC(=O)[C@H](CCCN=C(N)N)NC(=O)[C@@H](Cc2ccc3ccccc3c2)NC(=O)[C@@H]2CCCN2C1=O  plasma histamine (healthy dogs, plasma; subcutaneous, 2.25 mg/kg per day, day 28, 24 h post-dose, median): 17 ng/mL
CC(C)C[C@H](NC(=O)[C@H](CCC1CCCCC1)NC(=O)[C@@H]1CCCN1C(=O)c1ccc(F)cc1)C(=O)NC(C)(C)C(=O)N[C@@H](CC(C)C)C(=O)N[C@@H](CC(C)C)C(=O)NC(C)(C)C(=O)NC(C)(C)C(=O)NCCC(=O)NC1(CN(C)C)CCC1  remaining compound (mouse Balb/c male, liver microsomes; 2 µM, 40 min, pH 7.4): > 80%
C=CC(=O)Nc1cc(Nc2nccc(-c3c[nH]c4ccccc34)n2)c(OC)cc1N(C)CCN(C)C  median trough concentration (UHPLC-MS/MS; human, NSCLC patients, plasma; oral, 80 mg daily, steady state, at least 14 d treatment): 20 ng/mL
CCCC[C@@H]1NC(=O)[C@@H](NC(=O)[C@H](CCC(=O)O)NC(=O)CNC(=O)CN2CCN(CC(=O)O)CCN(CC(=O)O)CCN(CC(=O)O)CC2)CCCCNC(=O)C[C@@H](C(N)=O)NC(=O)[C@H](C(C)C)NC(=O)[C@@H]2CCCN2C(=O)[C@H](CCCNC(=N)N)NC(=O)CNC(=O)[C@H](Cc2c[nH]c3ccccc23)NC(=O)[C@H](CCCNC(=N)N)NC(=O)[C@@H](Cc2ccccc2)NC(=O)[C@H](Cc2c[nH]cn2)NC(=O)[C@H](CCC(=O)O)NC1=O [gallium-67 labelled]  tumour to kidney ratio (C57 mice with B16/F1 melanoma; intravenous, 0.037 MBq/mouse, 4 h; baseline: tumour over kidney): 0.36
NCCCC[C@H](NC(=O)[C@@H]1CCCN1C(=O)[C@@H]1CSSC[C@H](NC(=O)CNC(=O)CNC(=O)CN)C(=O)N[C@@H](Cc2ccc(O)cc2)C(=O)N[C@@H](Cc2ccccc2)C(=O)N[C@@H](CCC(N)=O)C(=O)N[C@@H](CC(N)=O)C(=O)N1)C(=O)NCC(N)=O  dose-normalised AUC (Sprague Dawley rats; sc, 0.2 mg/kg, normalised to 0.1 mg/kg): 4.4 ng·h/mL
COc1ccc2cc(-c3ccc(-c4ccc(C)cn4)nc3)oc2c1  radiative decay rate constant (TCSPC; toluene): 0.55 ns⁻¹
CN(C)C(=O)c1ccc(COC(=O)N[c-]2cccc2)cc1.[Fe+2].c1cc[cH-]c1  E1/2 (cyclic and differential pulse voltammetry; acetonitrile; 23 °C; baseline: ferrocene/ferrocenium): -70 mV
Cc1ccc(OCC(=O)O)cc1  Cmax (Sprague-Dawley rat, female, plasma; oral gavage, 100 mg/kg of parent drug): 12300 ± 5360 ng/mL
C=C(c1ccc(C(=O)O)c(F)c1)c1cc2c(cc1C)C(C)(C)C=CC2(C)C  blood triglycerides (Sprague-Dawley rat, male; oral, 100 mg/kg, 6 h, sesame oil vehicle): 268 ± 58 mg/dL
CC(C)(Sc1cc[n+]([O-])cc1-c1ccc(C#N)c2ccccc12)C(=O)OC1OC(C(=O)O)C(O)C(O)C1O (stereo not shown)  renal clearance decrease (urine; oral, 15 mg, severe renal impairment; baseline: normal renal function): 88% and ~90%
CC(C)c1cnc(-c2cc(Cl)ccc2F)cc1Nc1ccncc1C(=O)NC(CO)CO  patients with ALT increase (patients, phase I monotherapy; oral, dose not given, grade 5): 0%
NC[C@@H](C(=O)Nc1ccc(-c2cn[nH]c2)cc1)c1ccccc1  total eye irritation score (OECD 405 eye irritation; New Zealand White rabbit, eye; topical, 0.1%, 56 h (day 3); direction not given): 0
COc1cc2c(cc1OC)CN(CCCCn1ccc3cc(OCC[18F])ccc31)C2  brain/blood ratio (ICR mice, male; intravenous, 60 min): 1.16 ± 0.16
C[C@H](CC[C@@H](O[C@@H]1O[C@H](CO[C@@H]2O[C@H](CO)[C@@H](O)[C@H](O)[C@H]2O)[C@@H](O)[C@H](O)[C@H]1O[C@@H]1O[C@H](CO)[C@@H](O)[C@H](O)[C@H]1O)C(C)(C)O)[C@H]1CC[C@@]2(C)[C@@H]3CC=C4[C@@H](CC[C@H](O[C@@H]5O[C@H](CO[C@@H]6O[C@H](CO)[C@@H](O)[C@H](O)[C@H]6O)[C@@H](O)[C@H](O)[C@H]5O)C4(C)C)[C@]3(C)[C@H](O)C[C@]12C  micelle diameter (dynamic light scattering; water): ~160 nm and 160 nm
CC(C)[C@H](NC(=O)CNC(=O)[C@H](CCC(N)=O)NC(=O)[C@H](C)N)C(=O)O  time to concentration below LOQ (human; 3 mg/kg single dose, LOQ 0.5 ng/mL): 20 min
COC(=O)/C=C/C(=O)c1ccc(OC)cc1  recovery (LC-MS/MS; processed rat plasma, autosampler; 400 ng/mL, 12 h, 4 °C, post-preparative): 98.4 ± 7.23%
NC12CNCCNCC(NCc3ccc(CNC(=O)CCCC(=O)NCc4ccc(-c5nncnn5)cc4)cc3)(CNCCNC1)CNCCNC2.[64Cu+2]  mean absorbed dose (OLINDA dosimetry; total body; pretargeting, 48-h interval): 0.0347 rad/mCi
CCCCCCCC(=O)OC[C@H](NC(=O)[C@H](CO)NC(=O)CN)C(=O)N[C@@H](Cc1ccccc1)C(=O)N[C@@H](CC(C)C)C(=O)N[C@@H](CO)C(=O)N1CCC[C@H]1C(=O)N[C@@H](CCC(=O)O)C(=O)N[C@@H](Cc1cnc[nH]1)C(=O)N[C@@H](CCC(N)=O)C(=O)N[C@@H](CCCNC(=N)N)C(=O)N[C@H](C(=O)N[C@@H](CCC(N)=O)C(=O)N[C@@H](CCC(N)=O)C(=O)N[C@@H](CCCNC(=N)N)C(=O)N[C@@H](CCCCN)C(=O)N[C@@H](CCC(=O)O)C(=O)N[C@@H](CO)C(=O)N[C@@H](CCCCN)C(=O)N[C@@H](CCCCN)C(=O)N1CCC[C@H]1C(=O)N1CCC[C@H]1C(=O)N[C@@H](C)C(=O)N[C@@H](CCCCN)C(=O)N[C@@H](CC(C)C)C(=O)N[C@@H](CCC(N)=O)C(=O)N1CCC[C@H]1C(=O)N[C@@H](CCCNC(=N)N)C(=O)O)C(C)C  blood pressure dBP (beat-to-beat plethysmography; human chronic HFrEF patients; intravenous infusion, 0.1 µg/kg/min, 30 min after infusion end): 58.9 ± 7.5 mm Hg
CCCC(CCC)NC(=O)c1ccc(O)c(O)c1  metabolite peak area (LC-MS; human liver microsomes; 10 µM of parent drug, 20 min, pH 7.4, with: NADPH; baseline: parent drug at time zero): 7.8%
COC1C=COC2(C)Oc3c(C)c(O)c4c(c3C2=O)C2=NC3(CCN(CC(C)C)CC3)NC2=C(NC(=O)C(C)=CC=CC(C)C(O)C(C)C(O)C(C)C(OC(=O)Nc2cnccn2)C1C)C4=O (stereo not shown)  bioavailability (female CD-1 mouse, plasma; oral, 10 mg/kg): 73.6%
Polymyxin B  fraction in filtrate (ultrafiltration ELISA; 0.9% NaCl solution; 1 µg/mL, 30 kDa MMCO filter; baseline: positive control): 54%

A few entries again:
CN(C)C(=O)c1ccc(COC(=O)N[c-]2cccc2)cc1.[Fe+2].c1cc[cH-]c1  E1/2 (cyclic and differential pulse voltammetry; acetonitrile; 23 °C; baseline: ferrocene/ferrocenium): -70 mV
C#CCOc1ccc(/C=C2\SC(=O)N(CC(=O)NCc3ccccc3)C2=O)cc1  Kirkwood-Buff integral G1,3 (inverse Kirkwood-Buff integrals; binary solvent mixture; 298.15 K, mole fraction x1 0.90): -258 cm³/mol
O=c1nc(NO)ccn1[C@@H]1O[C@H](CO)[C@@H](O)[C@H]1O  mRNA level (RT-PCR, refers to: CYP2B2; normal rat, liver; oral, 80 mg/kg twice daily, 5 days; baseline: untreated rats): 0.1 fold
